Assay results of several laboratories.
Parts stem from different laboratories: compare values within a part only.

Series 1 — cell line: HEK-293T; organism: VSV pseudotyped with SARS-CoV-2 spike; concentration: 10 µM; time: 16 h; measurement: pseudovirus infection
NCCc1ccc(O)c(O)c1: 89.7%
CC(C)c1cccc(C(C)C)c1O: 97.6%
NS(=O)(=O)c1cc(C(=O)O)c(NCc2ccco2)cc1Cl: 94%
CC(C)NCC(O)COc1cccc2ccccc12 (centres unmarked): 83%

Series 2 — observed: enzyme activity; concentration: 20 µM; setting: with DTT; measurement: inhibition
Target: Replicase polyprotein 1ab, main protease (rep, Severe acute respiratory syndrome coronavirus 2, UniProt P0DTD1)
O=C(c1cccs1)c1no[n+]([O-])c1C(=O)c1cccs1: 98.6%
CCOc1ccc(Nc2nc(-c3c(C)nc4ccccn34)cs2)cc1: -23.7%
CCN1CCN(C(c2ccc(C(F)(F)F)cc2)c2ccc3cccnc3c2O)CC1 (centres unmarked): 99.6%
CCOc1cc(C(Nc2cc(C)ccn2)c2ccc3cccnc3c2O)ccc1OC (centres unmarked): 96.1%

Series 3 — technique: RNA Bind-n-Seq; form: RNA; matrix: in vitro; concentration: 1 µM; setting: whole 134-nt RNA, ends assumed; together with: 150 mM KCl; baseline: input library; reading: higher = stronger binding; measurement: log2 enrichment
Target: Ras GTPase-activating protein-binding protein 1, C-terminal RGG region (G3BP1, Homo sapiens, UniProt Q13283)
Sequence of UniProt Q13283 (whole entry, looked up): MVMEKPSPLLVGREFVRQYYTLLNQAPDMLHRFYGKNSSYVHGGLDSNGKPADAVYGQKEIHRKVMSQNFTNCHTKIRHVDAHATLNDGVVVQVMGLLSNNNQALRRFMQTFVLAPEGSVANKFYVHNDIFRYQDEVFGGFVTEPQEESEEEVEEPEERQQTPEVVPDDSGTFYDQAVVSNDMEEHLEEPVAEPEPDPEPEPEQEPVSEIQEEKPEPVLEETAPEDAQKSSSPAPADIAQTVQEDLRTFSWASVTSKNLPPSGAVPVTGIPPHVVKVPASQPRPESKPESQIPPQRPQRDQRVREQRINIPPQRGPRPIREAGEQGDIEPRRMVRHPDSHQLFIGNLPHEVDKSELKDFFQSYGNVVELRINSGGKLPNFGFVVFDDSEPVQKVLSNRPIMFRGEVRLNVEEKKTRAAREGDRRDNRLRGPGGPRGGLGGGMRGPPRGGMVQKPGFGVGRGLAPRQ
GGGAGUUCUACAGUCCGACGAUCUUUUGAGGAAAGGAUGAAGGAGCUCAGAGAAGAGGUAAGGGUCUCCUAUCCUUCCCCUCUCCCCCAGAUUUGAGUUUUAUGUUAUGAAUCUGGAAUUCUCGGGUGUCAAGG: -1
GGGAGUUCUACAGUCCGACGAUCAGUCCUGUGCUACACAUCGUAUGUACCGAAUCGGGGCCCCGGGGCCCCGGCCCCGGGGAAAGUAUUAUGUUACGCCGUUCGGAUCUGCACUGGAAUUCUCGGGUGUCAAGG: -2.9
GGGAGUUCUACAGUCCGACGAUCCACAGACAACACGCACCCACACAGACACAGAGGGAAGGGGUUGGGAUGGGGACAGGGUGCACAGCAGGGCGGGGUAGGAAAACAGCCCCUUGGAAUUCUCGGGUGUCAAGG: -0.00735
GGGAGUUCUACAGUCCGACGAUCCCUGUGCUACACAUCGUAUGUACCGAAUCGGCCCCCCCGGGCCCCCCCGGCCCCCCCGGGAAAGUAUUAUGUUACGCCGUUCGGAUCUGCUGGAAUUCUCGGGUGUCAAGG: -1.4

Series 4 — technique: universal PBM; form: double-stranded DNA, one strand shown; matrix: in vitro; concentration: 600 nM; reading: higher = stronger binding; measurement: E-score
Target: Sal-like protein 4, full length isoform A (SALL4, Homo sapiens, UniProt Q9UJQ4, residues 1-1053)
Sequence of UniProt Q9UJQ4 (whole entry, looked up): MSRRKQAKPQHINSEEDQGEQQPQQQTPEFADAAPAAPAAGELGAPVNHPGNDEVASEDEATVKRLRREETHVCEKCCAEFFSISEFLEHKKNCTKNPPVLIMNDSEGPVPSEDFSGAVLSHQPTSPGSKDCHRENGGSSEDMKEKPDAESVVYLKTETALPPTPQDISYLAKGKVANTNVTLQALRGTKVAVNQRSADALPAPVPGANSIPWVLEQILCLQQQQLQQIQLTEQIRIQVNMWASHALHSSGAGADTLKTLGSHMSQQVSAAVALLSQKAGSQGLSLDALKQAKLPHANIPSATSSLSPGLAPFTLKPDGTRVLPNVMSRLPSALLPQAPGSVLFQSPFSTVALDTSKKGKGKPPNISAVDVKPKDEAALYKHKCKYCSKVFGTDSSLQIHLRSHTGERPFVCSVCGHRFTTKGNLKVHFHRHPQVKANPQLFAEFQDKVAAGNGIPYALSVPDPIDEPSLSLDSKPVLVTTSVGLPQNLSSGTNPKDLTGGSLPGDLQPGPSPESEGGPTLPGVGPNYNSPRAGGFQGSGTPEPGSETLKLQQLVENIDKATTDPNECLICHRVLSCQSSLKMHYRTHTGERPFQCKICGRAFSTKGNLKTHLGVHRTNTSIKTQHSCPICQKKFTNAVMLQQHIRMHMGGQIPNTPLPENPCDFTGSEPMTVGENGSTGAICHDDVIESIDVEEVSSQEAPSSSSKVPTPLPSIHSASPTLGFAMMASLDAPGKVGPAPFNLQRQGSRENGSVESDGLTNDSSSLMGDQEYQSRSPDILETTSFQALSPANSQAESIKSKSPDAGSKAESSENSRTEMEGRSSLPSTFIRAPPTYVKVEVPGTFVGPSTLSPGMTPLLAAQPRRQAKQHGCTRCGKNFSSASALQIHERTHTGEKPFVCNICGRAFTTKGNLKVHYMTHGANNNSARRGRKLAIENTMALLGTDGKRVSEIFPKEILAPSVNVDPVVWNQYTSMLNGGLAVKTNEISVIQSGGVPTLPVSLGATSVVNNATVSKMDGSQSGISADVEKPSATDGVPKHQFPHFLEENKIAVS
Setting: 8-mer, flanks averaged, mean of replicates
GTACTGTA: 0.115
CTCTTAGC: -0.0279
GCACCTAA: -0.0339
GTCTGGCA: -0.0863
ACGTTCTC: 0.0878
TCAACGGA: -0.0485
CGAGCAGC: -0.132
AATGCTGT: 0.116

Series 5 — mode: inhibitor; concentration: 20 µM; measurement: inhibition
Target: Replicase polyprotein 1ab, nsp13 helicase (rep, Severe acute respiratory syndrome coronavirus 2, UniProt P0DTD1)
CC(C)C1=C2[C@H]3CC[C@@H]4[C@@]5(C)CC[C@H](OC(=O)CC(C)(C)C(=O)O)C(C)(C)[C@@H]5CC[C@@]4(C)[C@]3(C)CC[C@@]2([C@@H](O)CN(CCN(C)C)Cc2ccc(Cl)cc2)CC1=O: -1.11%
Cc1ncccc1OC[C@@H]1CCCN1: -2.61%
O=C1N[C@@H]2[C@@H](O)[C@@H](O)[C@H](O)[C@@H](CO)N2C1=O: 3.08%
CCN(CC)CC1CCN(c2ncc3ncnc(Nc4ccc(F)c(Cl)c4)c3n2)CC1: 14.4%
O=C1NC(c2ccccc2)(c2ccccc2)C(=O)N1COP(=O)(O)O: 5.08%
C[C@H](CCC(=O)O)[C@H]1CC[C@H]2[C@@H]3[C@@H](O)C[C@@H]4C[C@H](O)CC[C@]4(C)[C@H]3CC[C@]12C: 5.5%
O=C(O)CCCCC(CCSCc1ccccc1)SCc1ccccc1 (centres unmarked): 5.53%
CCCOc1ccc(S(=O)(=O)N2CCN(CCO)CC2)cc1-c1nc2c(CCC)cn(CC)c2c(=O)[nH]1: 5.41%
CNc1cc(OC)c(C(=O)N[C@@H]2CCN(Cc3ccccc3)[C@@H]2C)cc1Cl (racemic): 9.92%
NC(=Nc1ccccc1)Nc1ccccc1: -18.5%
CC(C)C[C@H](NC(=O)[C@@H](Cc1c[nH]c2ccccc12)NC(=O)[C@H](Cc1ccc(O)cc1)NC(=O)[C@H](CO)NC(=O)[C@H](Cc1c[nH]c2ccccc12)NC(=O)[C@H](Cc1cnc[nH]1)NC(=O)[C@@H]1CCC(=O)N1)C(=O)N[C@@H](CCCN=C(N)N)C(=O)N1CCC[C@H]1C(=O)NCC(N)=O: -0.51%
O=C1Nc2ccccc2/C1=C1/Nc2ccccc2C1=O: 5.98%
O=C(c1ccc(/C=C/c2n[nH]c3ccccc23)cc1)N1CCNCC1: 2.84%
Cc1nc(N)sc1-c1ccnc(Nc2ccc(N3CCOCC3)cc2)n1: 10.5%
Nc1c2c(nc3c1CCC3)CCCC2: 2.36%
CCCCCCCCCCC(C)(C)C(=O)Nc1c(OC)cc(OC)cc1OC: 12.4%
Cc1cc(-c2cc(O)ccc2Cl)cc2nnc(Nc3ccc(OCCN4CCCC4)cc3)nc12: 7.19%
CC(=O)[C@H]1CC[C@H]2[C@@H]3CC[C@@H]4C[C@H](O)CC[C@]4(C)[C@H]3CC[C@]12C: 6.46%
c1coc(CNc2ncnc3[nH]cnc23)c1: 6.24%
Clc1cccc(SC2CCNCC2)n1: 5.58%
CC(C1=C(CCN(C)C)Cc2ccccc21)c1ccccn1 (centres unmarked): 5.8%
C[C@@]12CC[C@@H]3[C@@](CC[C@H]4[C@@]3(C)CCC[C@@]4(C)C(=O)O)(CC1=O)C2: 0.15%
CC(C)[C@H](CO)Nc1nc(Nc2cccc(Cl)c2)c2ncn(C(C)C)c2n1: -6%
Cc1cc2nc3c(=O)[nH]c(=O)nc-3n(C[C@H](O)[C@H](O)[C@H](O)COP(=O)(O)O)c2cc1C: -0.38%
C=CC(=O)Nc1cccc(Oc2nc(Nc3ccc(N4CCN(C)CC4)cc3OC)ncc2Cl)c1: 2.79%

Series 6 — technique: protein-binding microarray; form: double-stranded DNA, one strand shown; matrix: in vitro; concentration: 2540 nM top; setting: 60-bp whole probe; together with: salmon DNA 0.4 mg/ml; baseline: random background probes; reading: higher = stronger binding; measurement: fitted relative affinity; all sequences stand within: GCCTAGCAC … GTCTTGATTCGCTTGACGCTGCTG
Target: Interferon regulatory factor 3, full length, phosphomimetic (IRF3, Homo sapiens, UniProt Q14653, residues 1-427, S386D/S396D/S398D/S402D/T404D/S405D)
Residues (chain): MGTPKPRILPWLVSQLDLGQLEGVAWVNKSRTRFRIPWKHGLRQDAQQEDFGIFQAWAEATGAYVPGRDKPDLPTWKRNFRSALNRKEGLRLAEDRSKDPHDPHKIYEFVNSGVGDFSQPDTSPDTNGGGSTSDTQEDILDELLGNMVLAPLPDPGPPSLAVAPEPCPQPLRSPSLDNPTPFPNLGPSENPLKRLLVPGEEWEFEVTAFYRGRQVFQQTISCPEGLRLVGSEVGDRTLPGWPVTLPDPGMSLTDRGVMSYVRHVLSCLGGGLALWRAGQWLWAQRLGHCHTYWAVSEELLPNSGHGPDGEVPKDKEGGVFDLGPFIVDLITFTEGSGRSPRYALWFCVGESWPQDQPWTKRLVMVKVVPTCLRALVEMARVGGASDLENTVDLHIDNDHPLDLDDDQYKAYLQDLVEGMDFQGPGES
TCAGCTTTCCTGATGGTACTGTGCTAG: 1.67 z-score
TTAGGACTGGGGTTTCGGTTCGTGCTA: 3.52 z-score
TCATGTTTAAGAATGTTACTGTGCTAG: 0.0877 z-score
TTAGCTTTCGGTCTCGGTTAGTGCTAG: 5.19 z-score
ACAACTAGGGAATTTAGAAAAGTGCTA: 0.154 z-score
TCATATGTACTCTCTCCAACTGTGCTA: 0.374 z-score
ATATATATATATACAGATATGTGCTAG: 0.876 z-score
GACGGTTTCCTTTTCCTGATGTGCTAG: 10.5 z-score

Excerpt of the above (series 5):
O=C1NC(c2ccccc2)(c2ccccc2)C(=O)N1COP(=O)(O)O: 5.08%
C[C@H](CCC(=O)O)[C@H]1CC[C@H]2[C@@H]3[C@@H](O)C[C@@H]4C[C@H](O)CC[C@]4(C)[C@H]3CC[C@]12C: 5.5%
O=C(O)CCCCC(CCSCc1ccccc1)SCc1ccccc1 (centres unmarked): 5.53%
CCCOc1ccc(S(=O)(=O)N2CCN(CCO)CC2)cc1-c1nc2c(CCC)cn(CC)c2c(=O)[nH]1: 5.41%
CNc1cc(OC)c(C(=O)N[C@@H]2CCN(Cc3ccccc3)[C@@H]2C)cc1Cl (racemic): 9.92%
NC(=Nc1ccccc1)Nc1ccccc1: -18.5%
CC(C)C[C@H](NC(=O)[C@@H](Cc1c[nH]c2ccccc12)NC(=O)[C@H](Cc1ccc(O)cc1)NC(=O)[C@H](CO)NC(=O)[C@H](Cc1c[nH]c2ccccc12)NC(=O)[C@H](Cc1cnc[nH]1)NC(=O)[C@@H]1CCC(=O)N1)C(=O)N[C@@H](CCCN=C(N)N)C(=O)N1CCC[C@H]1C(=O)NCC(N)=O: -0.51%
